Experimental data collected from several papers.
Each numbered part is a random draw from the data of one study; scales do not carry over between parts. Substitutions count along the parent as printed.

Series 1
Target: POU, POU domain (Salpingoeca helianthica)
Technique: Spec-seq
Form: double-stranded DNA, one strand shown
Matrix: in vitro
Concentration: not given
Setting: whole probe, mean of replicates
Relative to: not given
Direction: lower = stronger binding
All sequences stand within: GAGTCGTCTCGTCAGCAC … CCGTAGAGCACTCAGGTC
Residues (chain): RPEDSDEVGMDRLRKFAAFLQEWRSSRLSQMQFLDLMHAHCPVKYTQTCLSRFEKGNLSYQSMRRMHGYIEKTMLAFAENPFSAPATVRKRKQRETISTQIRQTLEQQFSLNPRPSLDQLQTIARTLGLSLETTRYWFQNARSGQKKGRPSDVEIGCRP
`GCTGTAAT` — result for “relative binding energy”: 0.48 ln ratio.
`AGGTTAAT`: “relative binding energy” 0.0773 ln ratio.
`ATGCGAGG` — result for “relative binding energy”: 1.2 ln ratio.
Under “relative binding energy”, `TAGTTAAT` is recorded as -0.821 ln ratio.
`ATATTAAT` — result for “relative binding energy”: -0.193 ln ratio.
For `GAAATAAT`, “relative binding energy” read 0.444 ln ratio.
`ATGCCCGT` — result for “relative binding energy”: 1.28 ln ratio.
`ATGCAACC` — result for “relative binding energy”: 1.11 ln ratio.

Series 2
Target: Sal-like protein 4, full length isoform A (SALL4, Homo sapiens, UniProt Q9UJQ4, residues 1-1053)
Chain of UniProt Q9UJQ4 (whole entry, looked up): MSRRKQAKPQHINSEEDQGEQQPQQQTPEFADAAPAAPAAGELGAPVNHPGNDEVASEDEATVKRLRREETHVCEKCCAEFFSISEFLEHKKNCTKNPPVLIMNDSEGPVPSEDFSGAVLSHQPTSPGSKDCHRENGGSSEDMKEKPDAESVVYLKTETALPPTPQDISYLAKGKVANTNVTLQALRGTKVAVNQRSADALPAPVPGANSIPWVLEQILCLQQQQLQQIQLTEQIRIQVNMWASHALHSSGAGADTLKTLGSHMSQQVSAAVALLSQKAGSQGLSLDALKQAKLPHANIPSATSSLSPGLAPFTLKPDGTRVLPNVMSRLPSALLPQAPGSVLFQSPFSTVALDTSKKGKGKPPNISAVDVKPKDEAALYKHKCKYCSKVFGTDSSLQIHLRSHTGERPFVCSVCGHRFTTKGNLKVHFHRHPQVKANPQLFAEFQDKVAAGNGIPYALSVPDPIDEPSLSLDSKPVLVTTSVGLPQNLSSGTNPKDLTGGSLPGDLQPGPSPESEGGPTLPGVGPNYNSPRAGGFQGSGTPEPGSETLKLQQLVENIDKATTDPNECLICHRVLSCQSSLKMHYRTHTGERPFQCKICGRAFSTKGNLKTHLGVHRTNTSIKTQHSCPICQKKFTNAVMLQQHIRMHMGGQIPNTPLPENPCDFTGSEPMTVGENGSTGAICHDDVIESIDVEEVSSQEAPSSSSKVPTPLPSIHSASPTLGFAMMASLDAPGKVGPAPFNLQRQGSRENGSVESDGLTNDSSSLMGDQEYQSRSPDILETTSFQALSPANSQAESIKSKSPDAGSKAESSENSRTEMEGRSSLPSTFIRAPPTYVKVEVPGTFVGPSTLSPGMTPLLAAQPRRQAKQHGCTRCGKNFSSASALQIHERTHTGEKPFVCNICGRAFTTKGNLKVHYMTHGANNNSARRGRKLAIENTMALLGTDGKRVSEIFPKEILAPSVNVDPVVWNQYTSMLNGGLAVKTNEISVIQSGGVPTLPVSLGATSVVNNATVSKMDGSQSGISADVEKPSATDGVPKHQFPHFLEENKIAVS
Technique: universal PBM
Form: double-stranded DNA, one strand shown
Matrix: in vitro
Concentration: 600 nM
Setting: 8-mer, flanks averaged, mean of replicates
Direction: higher = stronger binding
`CAGGGGCA` gave an E-score of -0.178.
With `ACCAGGTA` the E-score was -0.129.
`CCTTGTTC` gave an E-score of -0.0894.
For `ACTGGAGG`, the E-score was -0.144.
`ATCGAGAA` has an E-score of 0.139.
`GTCGCAGA` gave an E-score of -0.131.
The E-score of `CGGCCATA` is reported as -0.0686.
For `CCAGTACG`, the E-score was -0.0779.

Series 3
Target: Phosphate system positive regulatory protein PHO4, full length, GST-tagged (PHO4, Saccharomyces cerevisiae, UniProt P07270, residues 1-312)
Technique: competition protein-binding microarray
Form: double-stranded DNA, one strand shown
Matrix: in vitro
Concentration: 2 µM
Setting: whole 60-bp probe, lowest competitor level
Added: Cbf1 competitor, 0.05 µM
Direction: higher = stronger binding
Residues (chain): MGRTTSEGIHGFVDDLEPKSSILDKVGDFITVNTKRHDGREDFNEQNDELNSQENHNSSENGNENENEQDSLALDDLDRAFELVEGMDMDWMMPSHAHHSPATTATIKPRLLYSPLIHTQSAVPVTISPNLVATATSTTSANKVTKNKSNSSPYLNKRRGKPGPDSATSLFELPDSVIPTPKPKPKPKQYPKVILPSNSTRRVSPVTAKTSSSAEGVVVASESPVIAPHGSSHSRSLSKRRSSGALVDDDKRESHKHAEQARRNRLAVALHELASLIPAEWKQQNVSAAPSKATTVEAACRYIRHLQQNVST
`AGTGTTTCAAGCCATCACGTCGACTAACGACAAAGTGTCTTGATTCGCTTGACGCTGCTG` has a fluorescence intensity of 4970 a.u.
For `GTTTCTTCCTCTGGATACGTGGGACAGCTTGATGCTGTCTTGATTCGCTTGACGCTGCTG`, the fluorescence intensity was 6240 a.u.
For `TCAAGAAGCAGTTTTATCGTGATGGGTTTCAAATCGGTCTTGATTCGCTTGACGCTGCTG`, the fluorescence intensity was 3580 a.u.
`TCAAGAAGGCAGAGATACGTGTGGATTTTGCAGACAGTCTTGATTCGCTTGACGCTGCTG` gave a fluorescence intensity of 4640 a.u.
For `GGTTCCATTAGTGATGGCGTGCTTTGCTCAACACAAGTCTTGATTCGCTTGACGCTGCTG`, the fluorescence intensity was 7090 a.u.
The fluorescence intensity of `AACAGATTCGGTGAGCTCGTGAGGTTTGAAGGCAGTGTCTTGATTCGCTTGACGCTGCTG` is reported as 6740 a.u.
With `TTATTTTTTCAGTCGCTCGTGGTCGATCGCCAACTTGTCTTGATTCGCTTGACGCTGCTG` the fluorescence intensity was 7700 a.u.
`AGCAACGTTTAGTGAACCGTGACAAGTTTGGCCAGCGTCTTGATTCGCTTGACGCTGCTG` has a fluorescence intensity of 5670 a.u.

Single results of other studies
Starting sequence: PafA, mature enzyme, eGFP fusion (Elizabethkingia meningoseptica, UniProt Q9KJX5); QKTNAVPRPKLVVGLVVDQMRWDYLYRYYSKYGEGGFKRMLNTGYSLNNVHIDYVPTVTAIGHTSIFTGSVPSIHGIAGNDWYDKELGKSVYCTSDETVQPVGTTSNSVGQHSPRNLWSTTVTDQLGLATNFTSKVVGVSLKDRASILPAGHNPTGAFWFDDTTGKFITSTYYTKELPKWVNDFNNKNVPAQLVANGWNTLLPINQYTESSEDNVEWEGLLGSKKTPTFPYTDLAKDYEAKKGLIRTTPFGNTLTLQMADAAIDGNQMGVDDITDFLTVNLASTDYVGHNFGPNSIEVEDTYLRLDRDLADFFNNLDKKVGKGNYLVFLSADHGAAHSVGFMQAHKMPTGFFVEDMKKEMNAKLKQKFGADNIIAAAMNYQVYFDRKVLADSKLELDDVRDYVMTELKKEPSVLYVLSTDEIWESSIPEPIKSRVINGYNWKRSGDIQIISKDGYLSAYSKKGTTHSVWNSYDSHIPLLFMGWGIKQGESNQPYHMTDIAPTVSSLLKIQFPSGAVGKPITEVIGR
For `P149V`, “oxyanion analog dissociation constant” read 3.47 µM (vanadate, free oxyanion; microfluidic competitive inhibition; in vitro, cell-free expressed; not given, derived from inhibition constants, unchanged parent 676 nM; lower = stronger binding).

Excerpt of the above (series 2):
`CCTTGTTC` gave an E-score of -0.0894.
For `ACTGGAGG`, the E-score was -0.144.
